Published values of several laboratories.
Lines come from different studies, so protocols differ. Numbers after ± are the reported error.
Sequence of UniProt Q9UPE1 (whole entry, looked up): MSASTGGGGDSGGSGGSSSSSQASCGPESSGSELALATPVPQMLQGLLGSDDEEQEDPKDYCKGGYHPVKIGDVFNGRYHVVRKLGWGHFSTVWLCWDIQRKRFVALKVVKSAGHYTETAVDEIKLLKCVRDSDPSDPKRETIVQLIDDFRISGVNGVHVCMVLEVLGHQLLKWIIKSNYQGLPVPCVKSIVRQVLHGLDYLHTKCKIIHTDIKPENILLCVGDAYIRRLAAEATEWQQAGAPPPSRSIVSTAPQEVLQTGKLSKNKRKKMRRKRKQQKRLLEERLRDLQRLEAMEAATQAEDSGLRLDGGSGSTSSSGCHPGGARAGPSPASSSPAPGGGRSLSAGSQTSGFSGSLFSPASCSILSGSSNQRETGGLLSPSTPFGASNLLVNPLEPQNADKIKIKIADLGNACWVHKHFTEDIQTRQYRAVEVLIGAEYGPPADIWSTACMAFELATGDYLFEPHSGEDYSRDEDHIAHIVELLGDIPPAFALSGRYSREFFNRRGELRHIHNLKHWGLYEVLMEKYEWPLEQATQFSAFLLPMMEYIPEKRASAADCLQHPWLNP

`CNS(=O)(=O)Nc1nccc(Cc2c(C)c3ccc(Oc4ncccc4F)cc3oc2=O)c1F` has an IC50 of 4.77 nM (KG-1a; cell viability; 7 days).
Under “log2 fold change”, `Cn1ncc2cc(-c3cncc(Cl)c3N3CCC4(CCNC4=O)CC3)ccc21` is recorded as -3.39 (LS174T; gene expression, microarray, item: MT1E mRNA; concentration not given, 24 h; relative to: untreated cells).
`Cc1nn(-c2cccc(N)c2)c(=O)c2cnc(Nc3ccc(N4CCNCC4)cc3)nc12` has an IC50 of over 10000 nM (SRPK3 (Homo sapiens, UniProt Q9UPE1); kinase activity, inhibitor, SelectScreen kinase profiling).
For `CCN(CC)CC(=O)Nc1cccc(-n2cc(-c3ccc4ccc(-c5cn(-c6cccc(NC(=O)CN(CC)CC)c6)nn5)cc4c3)nn2)c1`, the fold regulation was -1.42 fold (RCC4; PCR angiogenesis array, item: TIMP2; 5 x IC50, 6 h, normoxia; relative to: untreated).
For `CC(C)c1ccc(N(C)c2ccc3c(c2)OCC[C@H]3CNc2cnccc2C(=O)O)cc1`, the IC50 was 16.7 nM (Detroit 562; cell growth, CellTiter-Glo; 7 days).
For `COc1ccccc1-c1ccncc1C(=O)Nc1nnc(OCc2ccc(Cl)cc2)s1`, the colony survival was 0% (PEO1 BRCA2-mutant ovarian cancer; 1.00 µM, with: olaparib 0.125 µM).
For `Cc1ncsc1-c1ccc(C(C)NC(=O)C2CC(O)CN2C(=O)C(NC(=O)CCCCCCCCCCN2CCCC(Nc3ncc(Cl)c(Nc4ccccc4S(=O)(=O)C(C)C)n3)C2)C(C)(C)C)cc1` (stereo not drawn), “log2 fold change” read -1.19 (22Rv1; RNA-seq, item: MTRES1 mRNA; concentration not given; relative to: DMSO).
Under “cell fraction ANV−/PI+”, `CNC(NN=Cc1ccc([N+](=O)[O-])o1)=[S+][Au-][Cl]` is recorded as 1.8 ± 0.5% (CAKI-1; annexin V/PI flow cytometry; 15 µM, 72 h).
`C=C(NC(=O)c1csc(-c2nc3c(cc2O)-c2nc(cs2)C(=O)NC(C(C)O)C(=O)NC(=C(C)OC)c2nc(cs2)C(=O)NC2c4nc(cs4)C(=O)NC(COC(=O)c4c5c6c(cccc6n4O)COC(=O)C(OC4CC(C)(O)C(N(C)C)C(C)O4)C2OC5)c2nc-3cs2)n1)C(N)=O` (stereo not drawn) has a half-life of 5.5 h (cynomolgus monkey, plasma; intravenous, infusion).
`COC1CN([C@H]2CC[C@H]([C@@]3(C)Oc4c(Cl)cc(C(=O)NCc5c(SC)cc(C)[nH]c5=O)c(C)c4O3)CC2)C1`: “log2 fold change” 0.228 (RNA-seq, item: TJP2 mouse homolog; mouse, HT-1376 xenograft, whole blood; dose not given; relative to: vehicle).
`C=CC(=O)Nc1cccc(Cn2ncc3cnc(Nc4cnn(CCOC)c4)nc32)c1`: “percent of control” 99% (ZAK human; binding, KINOMEscan; 100 nM; lower = stronger binding).
Under “log2 fold change”, `CN1CCCNC(=O)c2cccc(c2)C(=O)NCCCN(C)CCCNc2cccc3c2C(=O)c2cccc(c2C3=O)NCCC1` is recorded as -2.37 (SAS; RNA-seq, item: CALU mRNA; 5 µM, 24 h; relative to: untreated cells).
For `C[C@H]1CN(c2ccc(Cl)c(Cl)c2)N=C1NC(=O)c1cnc(NCCOCCOCCNc2ncc(C(=O)NC3=NN(c4ccc(Cl)c(Cl)c4)C[C@@H]3C)cn2)nc1`, the EC50 was 52 nM (K562; cell growth or viability, ATP luminescence; 72 h).
`CO[C@@H]1[C@@H](OC(N)=O)[C@@H](O)[C@H](Oc2ccc3c(O)c(NC(=O)c4ccc(O)c(CC=C(C)C)c4)c(=O)oc3c2C)OC1(C)C` gave a colony count of 0.1 (DLD-1 parental; 300 µM, replicate 2).
For `Nc1ncc(-c2cc(-c3cnn(CC(F)(F)F)c3)ncc2F)nc1C(=O)NC1CNCC(F)C1` (stereo not drawn), the remaining binding was 38% (TYRO3; KINOMEscan; 1 µM; relative to: DMSO control).

For quick reference, copied from above:
For `Nc1ncc(-c2cc(-c3cnn(CC(F)(F)F)c3)ncc2F)nc1C(=O)NC1CNCC(F)C1` (stereo not drawn), the remaining binding was 38% (TYRO3; KINOMEscan; 1 µM; relative to: DMSO control).
`C=C(NC(=O)c1csc(-c2nc3c(cc2O)-c2nc(cs2)C(=O)NC(C(C)O)C(=O)NC(=C(C)OC)c2nc(cs2)C(=O)NC2c4nc(cs4)C(=O)NC(COC(=O)c4c5c6c(cccc6n4O)COC(=O)C(OC4CC(C)(O)C(N(C)C)C(C)O4)C2OC5)c2nc-3cs2)n1)C(N)=O` (stereo not drawn) has a half-life of 5.5 h (cynomolgus monkey, plasma; intravenous, infusion).
